Measurements gathered from unrelated publications.

SMILES	test	test system	setting	t1/2 [h]
O=C(Nc1cnccc1Cl)N1CCN(Cc2ccc3c(c2)OC(F)(F)O3)CC1		healthy young men, plasma	oral, 75 mg once daily, day 10	14.1
CCC1=C(CC)/C(=C/N[C@H]2CC[C@H](C)CC2)N=C1c1ccc[nH]1		pooled human liver microsomes	1 µM, pH 7.4	0.388
CCc1nc(C(N)=O)c(Nc2ccc(N3CCC(N4CCN(C)CC4)CC3)c(OC)c2)nc1NC1CCOCC1	LC-MS/MS	relapsed/refractory AML patients, plasma	oral, 40 mg once daily, cycle 1 day 15, median, from accumulation ratio	152
COc1cnc(NS(=O)(=O)c2ccc(N)cc2)nc1		human liver microsomes	2 µM, pH 7.4, approximate	~126
C[C@@H](NC(=O)N1C(=O)[C@H](Cc2ccnc(N)c2)[C@H]1C(=O)O)C1CCCCC1	UPLC-MS/MS	healthy adult Chinese volunteers, plasma	continuous intravenous infusion, 0.6 mg/kg/h, day 6 of 5-day infusion, mean	1.15
C[C@@H](N)C1CCN(S(=O)(=O)c2cccc3cnccc23)CC1		healthy volunteers, fasted, plasma	oral, 150 mg	1.26
CCN(CC)CCNC(=O)c1cc(S(C)(=O)=O)cnc1OC		human liver microsomes	2 µM, pH 7.4, approximate	~121
C[C@H]1CN(C(=O)CC#N)[C@]12CCN(c1ncnc3[nH]ccc13)C2		healthy Japanese males	oral, 100 mg single dose, mean	4.5
C[C@H](NC(=O)[C@H](C)NC(=O)[C@H](CCCNC(=N)N)NC(=O)[C@@H]1CCCN1C(=O)[C@H](CCCNC(=N)N)NC(=O)CNC(=O)c1ccc2c(c1)C(=O)OC21c2ccc(O)cc2Oc2cc(O)ccc21)C(=O)N[C@H](C(=O)N[C@@H](Cc1ccccc1)C(=O)N[C@@H](C)C(=O)N[C@@H](CCC(=O)O)C(=O)NCC(N)=O)[C@@H](C)O	CE-MS	HeLa cell lysate	37 °C	0.0833

A few entries again:
SMILES	test	test system	setting	t1/2 [h]
CCc1nc(C(N)=O)c(Nc2ccc(N3CCC(N4CCN(C)CC4)CC3)c(OC)c2)nc1NC1CCOCC1	LC-MS/MS	relapsed/refractory AML patients, plasma	oral, 40 mg once daily, cycle 1 day 15, median, from accumulation ratio	152
